Measured values from different studies.
Each line is one published result; not all experiments were run side by side.

`CCCCCOc1ccc(-c2ccc(-c3ccc(C(=O)N[C@H]4C[C@@H](O)[C@@H](OCC[N+](C)(C)C)NC(=O)[C@@H]5[C@@H](O)[C@@H](C)CN5C(=O)[C@H]([C@@H](C)O)NC(=O)[C@H]([C@H](O)[C@@H](O)c5ccc(O)cc5)NC(=O)[C@@H]5C[C@@H](O)CN5C(=O)[C@H]([C@@H](C)O)NC4=O)cc3)cc2)cc1` gave a Cmax of 17100 ng/mL (adult patients in ICU, plasma; intravenous, 400 mg loading, after first dose, median).
With `C[C@H]1COCCN1c1nc(NCc2cccnc2C(F)(F)F)c2cccnc2n1` the Cmax was 16200 ng/mL (BALB/c mice; oral, 10 mg/kg).
`Cn1ncc(-c2nc(N[C@H]3CC[C@H](N)CC3)ncc2Cl)c1CC1CC1` has a Cmax of 37.1 ng/mL (HPLC-MS/MS; patients, plasma; oral, 8 mg, day 5).
With `CC(=O)c1c(C)c2cnc(Nc3ccc(C4CCN(CCS(C)(=O)=O)CC4)cn3)nc2n(C2CCCC2)c1=O` the Cmax was 242 ng/mL (human, dose-escalation trial, plasma; oral, 75 mg twice daily, day 21, multiple doses).
The Cmax of `C[C@]1(CO)Cc2ncn(-c3ccc(C#N)c(Cl)c3)c2C(=O)O1` is reported as 1.37 µM (human, plasma; 40 mg single dose, geometric mean).
With `CC(C)[C@H](O)C(=O)N[C@H]1Cc2ccc3c(c2)[C@]2(C4=C(c5nc(CO)co5)N=C(O4)[C@H](C(C)(C)C)NC1=O)c1cc(F)ccc1N[C@@H]2O3` the Cmax was 1300 ng/mL (NSG mice, heart; intravenous, 10 mg/kg, single dose at MTD, added: paclitaxel 40 mg/kg).
The Cmax of `CN1CCN(S(=O)(=O)c2cc([N+](=O)[O-])ccc2N(CCOS(C)(=O)=O)CCOS(C)(=O)=O)CC1` is reported as 5.06 µM (naive female NSG mice, plasma; intraperitoneal, 10 mg/kg).
The Cmax of `CC[C@H](C)CCCCC(=O)N[C@@H](CCN)C(=O)N[C@H](C(=O)N[C@@H](CCN)C(=O)N[C@H]1CCNC(=O)[C@H]([C@@H](C)O)NC(=O)[C@H](CCN)NC(=O)[C@H](CCN)NC(=O)[C@H](CC(C)C)NC(=O)[C@@H](Cc2ccccc2)NC(=O)[C@H](CCN)NC1=O)[C@@H](C)O` is reported as 3650 ng/mL (critically ill patients, plasma; intravenous, dose not given, steady state, Low AUC group, median).
